{"data": "Assay results from different studies", "note": "A part holds a random share of what one study measured. Substitutions count along the parent as printed.", "UniProt Q9FGV1, sequence (whole entry, looked up)": "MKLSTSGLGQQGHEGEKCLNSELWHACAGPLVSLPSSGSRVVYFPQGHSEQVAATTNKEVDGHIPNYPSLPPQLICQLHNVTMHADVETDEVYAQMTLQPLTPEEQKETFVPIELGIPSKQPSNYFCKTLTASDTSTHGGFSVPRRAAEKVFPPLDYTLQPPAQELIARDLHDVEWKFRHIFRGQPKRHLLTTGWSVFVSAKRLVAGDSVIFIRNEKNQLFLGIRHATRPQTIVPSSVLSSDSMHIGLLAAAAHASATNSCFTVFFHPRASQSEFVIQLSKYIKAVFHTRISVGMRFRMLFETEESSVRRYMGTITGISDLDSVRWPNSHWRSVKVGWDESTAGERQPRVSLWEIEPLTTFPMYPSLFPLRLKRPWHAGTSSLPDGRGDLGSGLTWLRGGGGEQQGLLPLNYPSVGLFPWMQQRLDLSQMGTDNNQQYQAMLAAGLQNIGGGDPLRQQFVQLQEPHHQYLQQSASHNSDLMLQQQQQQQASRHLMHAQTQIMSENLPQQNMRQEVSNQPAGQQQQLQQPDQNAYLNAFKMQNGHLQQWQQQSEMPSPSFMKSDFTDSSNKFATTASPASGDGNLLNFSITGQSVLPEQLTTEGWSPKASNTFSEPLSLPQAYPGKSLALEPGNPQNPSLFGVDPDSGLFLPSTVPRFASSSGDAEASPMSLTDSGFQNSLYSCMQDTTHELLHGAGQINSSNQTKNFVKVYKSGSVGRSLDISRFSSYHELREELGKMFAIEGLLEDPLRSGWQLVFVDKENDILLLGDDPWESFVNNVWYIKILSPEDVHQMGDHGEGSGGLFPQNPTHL", "UniProt P93022, sequence (whole entry, looked up)": "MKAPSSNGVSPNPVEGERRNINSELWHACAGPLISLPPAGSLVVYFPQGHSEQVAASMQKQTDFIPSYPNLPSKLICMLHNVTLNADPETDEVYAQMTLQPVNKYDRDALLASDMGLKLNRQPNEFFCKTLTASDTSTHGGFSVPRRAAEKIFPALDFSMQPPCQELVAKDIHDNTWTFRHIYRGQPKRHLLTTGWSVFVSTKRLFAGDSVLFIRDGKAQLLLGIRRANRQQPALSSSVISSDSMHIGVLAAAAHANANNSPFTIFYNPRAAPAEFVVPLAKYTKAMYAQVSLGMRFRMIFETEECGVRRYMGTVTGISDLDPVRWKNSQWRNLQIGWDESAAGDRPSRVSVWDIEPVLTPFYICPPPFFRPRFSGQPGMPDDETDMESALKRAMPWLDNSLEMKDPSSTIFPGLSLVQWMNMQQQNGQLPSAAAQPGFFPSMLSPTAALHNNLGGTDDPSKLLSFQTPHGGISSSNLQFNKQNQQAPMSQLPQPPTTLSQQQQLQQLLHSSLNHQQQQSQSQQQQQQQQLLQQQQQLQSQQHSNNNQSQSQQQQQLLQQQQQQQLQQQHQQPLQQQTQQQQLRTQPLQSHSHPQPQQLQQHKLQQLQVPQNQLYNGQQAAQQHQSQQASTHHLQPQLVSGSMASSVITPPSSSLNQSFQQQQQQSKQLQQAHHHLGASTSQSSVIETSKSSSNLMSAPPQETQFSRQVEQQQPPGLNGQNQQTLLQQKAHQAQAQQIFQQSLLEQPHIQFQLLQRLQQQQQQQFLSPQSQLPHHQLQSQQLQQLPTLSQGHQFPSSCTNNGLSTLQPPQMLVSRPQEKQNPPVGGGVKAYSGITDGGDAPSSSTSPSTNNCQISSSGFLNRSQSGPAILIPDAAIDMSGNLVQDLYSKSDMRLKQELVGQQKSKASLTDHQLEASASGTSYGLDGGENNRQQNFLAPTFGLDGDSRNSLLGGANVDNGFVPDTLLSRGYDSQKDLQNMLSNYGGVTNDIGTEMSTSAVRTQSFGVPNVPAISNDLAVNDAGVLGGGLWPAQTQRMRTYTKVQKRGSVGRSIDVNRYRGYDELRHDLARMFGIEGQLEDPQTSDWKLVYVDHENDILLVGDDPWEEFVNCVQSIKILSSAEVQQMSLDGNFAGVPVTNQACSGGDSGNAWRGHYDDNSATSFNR", "UniProt Q8RYC6, sequence (whole entry, looked up)": "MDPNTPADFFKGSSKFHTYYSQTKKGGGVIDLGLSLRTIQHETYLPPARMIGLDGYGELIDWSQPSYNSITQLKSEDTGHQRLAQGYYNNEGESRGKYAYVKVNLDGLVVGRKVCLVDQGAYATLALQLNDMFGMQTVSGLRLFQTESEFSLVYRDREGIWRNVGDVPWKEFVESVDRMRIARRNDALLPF", "UniProt Q9FX25, sequence (whole entry, looked up)": "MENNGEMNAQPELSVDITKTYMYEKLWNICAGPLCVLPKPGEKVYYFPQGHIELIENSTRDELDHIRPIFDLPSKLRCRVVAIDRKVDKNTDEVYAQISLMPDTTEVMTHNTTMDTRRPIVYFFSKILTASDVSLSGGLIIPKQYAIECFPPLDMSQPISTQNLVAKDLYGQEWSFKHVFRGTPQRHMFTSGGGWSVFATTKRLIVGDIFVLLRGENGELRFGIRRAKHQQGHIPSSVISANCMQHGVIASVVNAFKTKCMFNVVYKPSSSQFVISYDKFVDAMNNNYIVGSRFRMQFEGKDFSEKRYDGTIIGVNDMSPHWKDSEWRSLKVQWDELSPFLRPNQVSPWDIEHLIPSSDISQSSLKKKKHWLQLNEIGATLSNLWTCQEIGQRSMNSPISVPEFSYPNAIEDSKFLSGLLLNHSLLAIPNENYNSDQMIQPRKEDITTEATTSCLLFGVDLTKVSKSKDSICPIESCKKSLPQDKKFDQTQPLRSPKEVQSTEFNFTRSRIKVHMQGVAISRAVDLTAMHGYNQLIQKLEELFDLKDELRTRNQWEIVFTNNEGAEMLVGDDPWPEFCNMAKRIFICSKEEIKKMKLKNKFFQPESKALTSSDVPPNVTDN", "UniProt Q9C5W9, sequence (whole entry, looked up)": "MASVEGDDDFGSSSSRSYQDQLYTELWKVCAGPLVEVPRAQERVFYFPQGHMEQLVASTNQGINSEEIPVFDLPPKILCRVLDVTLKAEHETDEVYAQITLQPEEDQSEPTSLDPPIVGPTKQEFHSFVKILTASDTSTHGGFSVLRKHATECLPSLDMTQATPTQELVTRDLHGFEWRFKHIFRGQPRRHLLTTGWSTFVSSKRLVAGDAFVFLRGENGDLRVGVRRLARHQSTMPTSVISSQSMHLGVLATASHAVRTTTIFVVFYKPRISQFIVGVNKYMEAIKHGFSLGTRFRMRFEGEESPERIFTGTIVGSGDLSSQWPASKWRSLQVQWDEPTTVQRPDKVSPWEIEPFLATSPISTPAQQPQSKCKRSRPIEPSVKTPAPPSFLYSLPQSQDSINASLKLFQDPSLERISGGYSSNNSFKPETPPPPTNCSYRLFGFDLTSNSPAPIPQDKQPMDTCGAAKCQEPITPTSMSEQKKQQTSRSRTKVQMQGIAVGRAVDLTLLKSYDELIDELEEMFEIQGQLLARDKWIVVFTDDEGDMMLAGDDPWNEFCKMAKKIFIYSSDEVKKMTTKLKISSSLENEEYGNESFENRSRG", "UniProt Q9SKN5, sequence (whole entry, looked up)": "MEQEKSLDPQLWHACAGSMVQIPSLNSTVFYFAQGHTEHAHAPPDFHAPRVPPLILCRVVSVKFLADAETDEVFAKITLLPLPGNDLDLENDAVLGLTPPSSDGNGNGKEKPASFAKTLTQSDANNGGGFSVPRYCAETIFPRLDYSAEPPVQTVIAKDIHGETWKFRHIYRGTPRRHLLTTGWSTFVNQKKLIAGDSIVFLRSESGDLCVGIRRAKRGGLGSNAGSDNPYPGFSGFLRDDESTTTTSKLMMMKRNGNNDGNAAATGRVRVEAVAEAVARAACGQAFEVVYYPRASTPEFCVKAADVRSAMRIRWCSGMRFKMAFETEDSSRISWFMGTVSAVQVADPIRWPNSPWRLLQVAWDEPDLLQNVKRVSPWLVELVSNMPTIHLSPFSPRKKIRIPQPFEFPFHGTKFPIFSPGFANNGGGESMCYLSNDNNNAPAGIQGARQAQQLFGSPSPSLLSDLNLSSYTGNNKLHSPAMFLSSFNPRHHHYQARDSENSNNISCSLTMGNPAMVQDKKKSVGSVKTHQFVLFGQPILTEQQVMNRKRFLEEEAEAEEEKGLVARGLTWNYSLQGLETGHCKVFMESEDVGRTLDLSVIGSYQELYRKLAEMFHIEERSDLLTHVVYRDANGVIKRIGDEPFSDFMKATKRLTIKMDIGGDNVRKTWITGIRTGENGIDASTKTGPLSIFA"}
{"data": "Set 1", "target": "CCNE2, cyclin fold, Cln2 fusion (human)", "method": "yeast growth competition, sequencing", "matrix": "yeast", "notes": "weak parent motif", "baseline": "not given", "reading": "higher = stronger binding", "parent": "ORC1 docking peptide (human); PRARKRLELGNLG"}
{"Variant": "L12T", "normalised enrichment score": 0.62}
{"Variant": "E8M", "normalised enrichment score": 0.527}
{"Variant": "G10A", "normalised enrichment score": 0.521}
{"Variant": "G10W", "normalised enrichment score": 1.85}
{"Variant": "R6Y", "normalised enrichment score": 1.15}
{"Variant": "A3L", "normalised enrichment score": 0.561}
{"Variant": "N11P", "normalised enrichment score": 1.2}
{"Variant": "R6I", "normalised enrichment score": 0.207}
{"Variant": "L9K", "normalised enrichment score": 0.346}
{"Variant": "G13A", "normalised enrichment score": -0.182}
{"Variant": "L12E", "normalised enrichment score": 0.901}
{"Variant": "R4Q", "normalised enrichment score": 0.583}
{"Variant": "R4S", "normalised enrichment score": -0.153}
{"Variant": "L7Y", "normalised enrichment score": 0.883}
{"Variant": "G10L", "normalised enrichment score": 0.994}
{"Variant": "E8D", "normalised enrichment score": 1.6}
{"Variant": "K5P", "normalised enrichment score": 0.882}
{"Variant": "A3R", "normalised enrichment score": 0.3}
{"Variant": "N11M", "normalised enrichment score": 1.07}
{"Variant": "L9E", "normalised enrichment score": 0.129}
{"data": "Set 2", "Molecule": "B1 (IAA30)", "method": "two-hybrid", "notes": "weak activation fusion", "baseline": "out of 4 tests", "reading": "higher = firmer interaction", "B1": "IAA30 (Arabidopsis thaliana, UniProt Q9M1R4); chain MGRGRSSSSSSIESSCKSNPFGVSSSNTRNLSTDLRLGLSFGSSSGQYYNGGDNHEYDGVGAAEEMMIMEEEEQNECNSVGSFYVKVNMEGVPIGRKIDLLSLNGYHDLITTLDYMFNASILWAEEEDMCSEKSHVLTYADKEGDWMMVGDVPWEMFLSSVRRLKISRAYHY"}
{"partner": "ARF10 575-693 (Arabidopsis thaliana, UniProt Q9SKN5)", "positive tests": 0}
{"partner": "IAA32 (Arabidopsis thaliana, UniProt Q8RYC6)", "positive tests": 1}
{"partner": "ARF7 1030-1164 (Arabidopsis thaliana, UniProt P93022)", "positive tests": 1}
{"partner": "ARF13 (Arabidopsis thaliana, UniProt Q9FX25)", "positive tests": 0}
{"partner": "ARF18 482-602 (Arabidopsis thaliana, UniProt Q9C5W9)", "positive tests": 1}
{"partner": "ARF8 699-811 (Arabidopsis thaliana, UniProt Q9FGV1)", "positive tests": 2}
{"data": "Set 3", "target": "Ras GTPase-activating protein-binding protein 1, RRM domain (G3BP1, Homo sapiens, UniProt Q13283)", "method": "RNA Bind-n-Seq", "molecule type": "RNA", "matrix": "in vitro", "concentration": "1 µM", "notes": "whole 134-nt RNA, ends assumed", "added": "150 mM KCl", "baseline": "input library", "reading": "higher = stronger binding", "constant ends, left off below": "GGGAGUUCUACAGUCCGACGAUC … UGGAAUUCUCGGGUGUCAAGG", "UniProt Q13283, sequence (whole entry, looked up)": "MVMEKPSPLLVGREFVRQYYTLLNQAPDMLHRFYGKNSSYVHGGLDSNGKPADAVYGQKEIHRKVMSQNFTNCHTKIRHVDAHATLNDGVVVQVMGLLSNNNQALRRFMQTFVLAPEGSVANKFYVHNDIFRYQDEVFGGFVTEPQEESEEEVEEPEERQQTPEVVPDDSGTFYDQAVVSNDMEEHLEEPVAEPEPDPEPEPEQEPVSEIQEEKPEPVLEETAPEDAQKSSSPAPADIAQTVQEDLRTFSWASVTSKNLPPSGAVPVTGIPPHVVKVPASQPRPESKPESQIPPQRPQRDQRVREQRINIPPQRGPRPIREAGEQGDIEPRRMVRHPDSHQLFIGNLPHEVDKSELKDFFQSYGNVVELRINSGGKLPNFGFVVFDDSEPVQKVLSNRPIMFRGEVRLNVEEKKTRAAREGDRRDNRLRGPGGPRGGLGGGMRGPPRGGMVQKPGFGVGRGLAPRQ"}
{"Oligonucleotide": "CACAGACAACACGCACCCACACCGACACAGAGGGAAGGGGUUGGGAUGGGGACAGGGUGCACAGCAGGGCGGGGUAGGACCCCAGCCCCU", "log2 enrichment": -0.149}
{"Oligonucleotide": "UGCUUCUGAGUUGCCCAGGAGACCACUGGCAGAUGUCCCGGCGAAGAGAAGAGACACAUUGUUGGAAGAAGCAGCCCAUGACAGCUCCCC", "log2 enrichment": -0.211}
{"Oligonucleotide": "CACAGACAACACGCACCCACACAGACACAGAGGGAAGGGGUUGGGAUGGGGACAGGGUGCACAAAAGGGCGGGGUAGGACCCCAGCCCCU", "log2 enrichment": -0.0932}
{"Oligonucleotide": "AAUGCCCACAAGGUCCCUCCCCCAUGGCUGAUUGCCAUGCAGCGAUAUGGACCACCCCCAUCGUAUCCCAACCUGAAAAUCCCUGGGCUG", "log2 enrichment": -0.294}
{"Oligonucleotide": "AAGUCCUGUGCUACACAUCGUAUGUACCGAAUCGGUUUUUGGUUUUUGGAAAAAGGAAAGUAUUAUGUUACGCCGUUCGGAUCUGCACUU", "log2 enrichment": -0.13}
{"Oligonucleotide": "UUUAAGAGCAGCCAGGGAGAUAGUGGCGUUGACUUGAGUGCCGAGUCUCGGGAGUCGUCUGCGACCUCCUCGCAGCGCAGCUCCCCAUAU", "log2 enrichment": 0.0733}
{"Oligonucleotide": "UCCUGUGCUACACAUCGUAUGUACCGAAUCGGGGUUUUUUUGGGGUUUGGGGUUUGGGGAAAGUAUUAUGUUACGCCGUUCGGAUCUGCA", "log2 enrichment": 1.11}
{"Oligonucleotide": "AAGUCCUGUGCUACACAUCGUAUGUACCGAAUCGGAAAAGGGGAAAAGGGGAAAAGGAAAGUAUUAUGUUACGCCGUUCGGAUCUGCACU", "log2 enrichment": 0.0312}
{"Oligonucleotide": "AGUCCUGUGCUACACAUCGUAUGUACCGAAUCGGGGUGGGGUGGGGAAAAAAAGGGGAAAGUAUUAUGUUACGCCGUUCGGAUCUGCACU", "log2 enrichment": 0.777}
{"data": "Set 4", "target": "Histone acetyltransferase KAT6A, winged helix 2, GST fusion (KAT6A, Homo sapiens, UniProt Q92794, residues 85-181)", "method": "protein binding microarray", "molecule type": "double-stranded DNA, one strand shown", "matrix": "in vitro", "concentration": "not given", "notes": "8-mer, flanks averaged, mean of 2 arrays, mostly near background", "baseline": "not given", "reading": "higher = stronger binding", "Residues (chain)": "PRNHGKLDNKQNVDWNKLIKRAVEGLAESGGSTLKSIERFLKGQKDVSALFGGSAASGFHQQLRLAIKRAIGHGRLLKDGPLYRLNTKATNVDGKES"}
{"Oligonucleotide": "AGGTTTGA", "E-score": 0.03}
{"Oligonucleotide": "CGGCCGGA", "E-score": 0.0952}
{"Oligonucleotide": "AACCGATA", "E-score": 0.0713}
{"Oligonucleotide": "ACACGTCC", "E-score": -0.223}
{"Oligonucleotide": "AACGACAC", "E-score": -0.0141}
{"Oligonucleotide": "AAGTATAA", "E-score": -0.0932}
{"Oligonucleotide": "GATACAGC", "E-score": -0.0333}
{"Oligonucleotide": "CATCATCG", "E-score": -0.0912}
{"Oligonucleotide": "ACTGTATG", "E-score": -0.0949}
{"Oligonucleotide": "CGATGGAC", "E-score": 0.0974}
{"Oligonucleotide": "CCGTGGAA", "E-score": 0.0505}
{"Oligonucleotide": "GATTGCGA", "E-score": 0.227}
{"Oligonucleotide": "GGGGAGAC", "E-score": 0.0538}
{"Oligonucleotide": "AGTTTGTA", "E-score": -0.15}
{"Oligonucleotide": "AAATCTAC", "E-score": 0.0357}
{"Oligonucleotide": "TCCACCCA", "E-score": -0.108}
{"Oligonucleotide": "ATGCCTCC", "E-score": -0.0872}
{"Oligonucleotide": "AAATCCAT", "E-score": 0.0672}
{"Oligonucleotide": "ATTCTTGC", "E-score": 0.134}
{"Oligonucleotide": "CAAGCGTC", "E-score": 0.0965}
{"Oligonucleotide": "TCTACAAA", "E-score": -0.169}
{"Oligonucleotide": "ACCACTTG", "E-score": -0.0246}
{"Oligonucleotide": "ACATGAAG", "E-score": 0.00144}
{"data": "Other studies, line by line"}
{"Molecule": "PhoQ, residues 284 288 289 292 302 303 TASMAF", "target": "PhoP, residues 12 14 15 18 19 MHTVL (Escherichia coli, UniProt P23836)", "test": "Sort-seq, measured: YFP reporter", "system": "E. coli", "setting": "PhoQ-PhoP variant library, added: 10 µM Mg2+", "scale": "baseline: high Mg2+ state, higher = stronger signaling", "endpoint": "fold induction", "result": 8.22}
{"note": "A few entries again (set 4):"}
{"Oligonucleotide": "CCGTGGAA", "E-score": 0.0505}
{"Oligonucleotide": "AGTTTGTA", "E-score": -0.15}
{"Oligonucleotide": "ATTCTTGC", "E-score": 0.134}
{"Oligonucleotide": "TCCACCCA", "E-score": -0.108}
{"Oligonucleotide": "ACCACTTG", "E-score": -0.0246}
{"Oligonucleotide": "GGGGAGAC", "E-score": 0.0538}
